Published values of several laboratories.
Parts stem from different laboratories: compare values within a part only.

Series 1
Target: Histone acetyltransferase KAT6A, winged helix 2, GST fusion (KAT6A, Homo sapiens, UniProt Q92794, residues 85-181)
Method: protein binding microarray
Molecule type: double-stranded DNA, one strand shown
Medium: in vitro
Concentration: not given
Setting: 8-mer, flanks averaged, mean of 2 arrays, mostly near background
Relative to: not given
Direction: higher = stronger binding
Measurement: E-score
Residues (chain): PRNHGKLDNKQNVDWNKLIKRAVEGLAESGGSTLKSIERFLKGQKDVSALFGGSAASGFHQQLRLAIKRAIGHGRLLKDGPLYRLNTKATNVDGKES
CAAATAAC: -0.0666
CGCCAAGC: 0.141
CGTTGCCC: -0.00436
AAGATACT: -0.0456
ATAAACGG: 0.0248

Series 2
Target: Interferon regulatory factor 3, full length, phosphomimetic (IRF3, Homo sapiens, UniProt Q14653, residues 1-427, S386D/S396D/S398D/S402D/T404D/S405D)
Method: protein-binding microarray
Molecule type: double-stranded DNA, one strand shown
Medium: in vitro
Concentration: 2540 nM top
Setting: 60-bp whole probe
Added: salmon DNA 0.4 mg/ml
Relative to: random background probes
Direction: higher = stronger binding
Measurement: fitted relative affinity
Shared flanks, not repeated: GCCTAGCAC … GTCTTGATTCGCTTGACGCTGCTG
Residues (chain): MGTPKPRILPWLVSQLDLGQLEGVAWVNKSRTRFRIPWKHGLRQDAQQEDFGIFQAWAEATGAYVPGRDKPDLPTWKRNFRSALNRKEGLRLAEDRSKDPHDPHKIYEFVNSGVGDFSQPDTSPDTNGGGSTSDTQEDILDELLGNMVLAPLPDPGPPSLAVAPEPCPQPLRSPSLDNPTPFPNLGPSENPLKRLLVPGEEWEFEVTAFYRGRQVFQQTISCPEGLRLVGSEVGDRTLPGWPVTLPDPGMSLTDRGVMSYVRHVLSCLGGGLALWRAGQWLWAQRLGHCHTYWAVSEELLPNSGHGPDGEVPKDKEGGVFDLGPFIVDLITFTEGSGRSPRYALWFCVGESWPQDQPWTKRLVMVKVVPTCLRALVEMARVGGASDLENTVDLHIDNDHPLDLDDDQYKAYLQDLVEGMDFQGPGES
CACGATTTCGGGTATCGAGACGTGCTA: 1.3 z-score
TCATCCCTAATTCTGATACTGTGCTAG: 0.764 z-score
TTAGGTTTCGGTCTCGGTTGGTGCTAG: 8.47 z-score
ATCCCATTAAATTTTAATAAGTGCTAG: 0.925 z-score
TCAGGTATCGACACTGGGTTAGTGCTA: 0.459 z-score

Series 3
Target: Phosphate system positive regulatory protein PHO4, full length, GST-tagged (PHO4, Saccharomyces cerevisiae, UniProt P07270, residues 1-312)
Method: competition protein-binding microarray
Molecule type: double-stranded DNA, one strand shown
Medium: in vitro
Concentration: 2 µM
Setting: whole 60-bp probe, lowest competitor level
Added: Cbf1 competitor, 0.05 µM
Direction: higher = stronger binding
Measurement: fluorescence intensity
Shared flanks, not repeated: … GTCTTGATTCGCTTGACGCTGCTG
Residues (chain): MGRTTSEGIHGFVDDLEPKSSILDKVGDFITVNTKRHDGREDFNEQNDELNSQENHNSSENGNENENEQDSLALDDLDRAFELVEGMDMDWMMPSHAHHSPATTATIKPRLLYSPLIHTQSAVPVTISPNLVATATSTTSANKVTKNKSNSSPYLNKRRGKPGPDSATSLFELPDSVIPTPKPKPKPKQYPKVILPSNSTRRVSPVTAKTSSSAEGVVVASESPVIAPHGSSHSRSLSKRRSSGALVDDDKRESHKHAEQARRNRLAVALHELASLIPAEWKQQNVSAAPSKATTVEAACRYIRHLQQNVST
CTTCTGTAAATTTGGAGAGTGGGTGGACGCGCCCCG: 3990 a.u.
TCTGATACGTATCACCACGTGGCCGGTACTTGTTCT: 17500 a.u.
TGGTCTTGGCCTTGACCGGTGATACGCGTCTTGTGC: 3250 a.u.
GATACACTTCCAGGGAACGTGATGGAAATGATCTTC: 12200 a.u.
GTCCTGGCACCATCAATCGTGCTTTGACCAGTATGT: 7140 a.u.

Mixed results
PhoQ, residues 284 288 289 292 302 303 SNGLAW — fold induction (PhoP, residues 12 14 15 18 19 VHSCL (Escherichia coli, UniProt P23836); Sort-seq, item: YFP reporter; E. coli; PhoQ-PhoP variant library, added: 10 µM Mg2+; relative to: high Mg2+ state, higher = stronger signaling): 12.4

For quick reference, copied from above (mixed results):
PhoQ, residues 284 288 289 292 302 303 SNGLAW — fold induction (PhoP, residues 12 14 15 18 19 VHSCL (Escherichia coli, UniProt P23836); Sort-seq, item: YFP reporter; E. coli; PhoQ-PhoP variant library, added: 10 µM Mg2+; relative to: high Mg2+ state, higher = stronger signaling): 12.4
